Results from different studies.

C=CC(=O)Nc1cccc(Cn2ncc3cnc(Nc4cnn(CCOC)c4)nc32)c1
percent of control (PAK1 human; binding, KINOMEscan; 100 nM; lower = stronger binding): 100%

CNS(=O)(=O)Nc1nccc(Cc2c(C)c3ccc(Oc4ncccc4F)cc3oc2=O)c1F
IC50 (OCI-AML-3; cell viability; 7 days): 1.42 nM

C=CC(=O)N1[C@H](c2ccc3c(c2)OCO3)c2[nH]c3ccccc3c2C[C@@H]1C(=O)N1CCN(C)CC1
relative co-enrichment (human cyclin E1 N112C-3xFLAG:CDK2; co-IP with TMT proteomics, refers to: HSPA9; concentration not given, P38646; baseline: wild type DMSO): 115%

C=C(NC(=O)c1csc(-c2nc3c(cc2O)-c2nc(cs2)C(=O)NC(C(C)O)C(=O)NC(=C(C)OC)c2nc(cs2)C(=O)NC2c4nc(cs4)C(=O)NC(COC(=O)c4c5c6c(cccc6n4O)COC(=O)C(OC4CC(C)(O)C(N(C)C)C(C)O4)C2OC5)c2nc-3cs2)n1)C(N)=O (stereo not shown)
bacterial load (Streptococcus pneumoniae; -4, immunocompromised mice, lung infection, lung; 16 mg/kg/day three times daily, 24 h post-dose): 5.54 log CFU/g

CN1CCCNC(=O)c2cccc(c2)C(=O)NCCCN(C)CCCNc2cccc3c2C(=O)c2cccc(c2C3=O)NCCC1
log2 fold change (SAS; RNA-Seq, refers to: NFKB1 mRNA; 1 µM, 6 h; baseline: untreated cells): -2.74

CCN(CC)CC(=O)Nc1cccc(-n2cc(-c3ccc4ccc(-c5cn(-c6cccc(NC(=O)CN(CC)CC)c6)nn5)cc4c3)nn2)c1
fold regulation (RCC4; PCR angiogenesis array, refers to: VEGFB; 5 x IC50, 2 h, normoxia; baseline: untreated): 1.2 fold

Cn1ncc2cc(-c3cncc(Cl)c3N3CCC4(CCNC4=O)CC3)ccc21
log2 fold change (LS174T; gene expression, microarray, refers to: NDRG1 mRNA; concentration not given, 24 h; baseline: untreated cells): 2.54

Cc1ncsc1-c1ccc(C(C)NC(=O)C2CC(O)CN2C(=O)C(NC(=O)CCCCCCCCCCN2CCCC(Nc3ncc(Cl)c(Nc4ccccc4S(=O)(=O)C(C)C)n3)C2)C(C)(C)C)cc1 (stereo not shown)
log2 fold change (22Rv1; RNA-seq, refers to: ZNF609 mRNA; concentration not given; baseline: DMSO): -1.67

COC1CN([C@H]2CC[C@H]([C@@]3(C)Oc4c(Cl)cc(C(=O)NCc5c(SC)cc(C)[nH]c5=O)c(C)c4O3)CC2)C1
log2 fold change (RNA-seq, refers to: LYPD1 mouse homolog; mouse, HT-1376 xenograft, whole blood; dose not given; baseline: vehicle): 4.57

Nc1ncc(-c2cc(-c3cnn(CC(F)(F)F)c3)ncc2F)nc1C(=O)NC1CNCC(F)C1 (stereo not shown)
remaining binding (STK36; KINOMEscan; 1 µM; baseline: DMSO control): 97%
